Measurements collected from several papers.
A part holds a random share of what one study measured. Values joined by “and” are separate records of one study, mostly repeats; a detail may differ.

Set 1 — method: protein binding microarray; form: double-stranded DNA, one strand shown; sample: in vitro; tested at: not given; reference: not given; direction: higher = stronger binding
Target: Histone acetyltransferase KAT6A, winged helix 1, GST fusion (KAT6A, Homo sapiens, UniProt Q92794, residues 1-85)
Setting: 8-mer, flanks averaged, mean of 2 arrays, mostly near background
Target sequence (chain): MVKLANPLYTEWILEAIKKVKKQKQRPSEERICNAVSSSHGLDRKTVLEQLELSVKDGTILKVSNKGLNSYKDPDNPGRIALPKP
The E-score of `TCCGTCGA` is reported as 0.218.
The E-score of `CTGACATA` is reported as -0.0878.
For `ATCCTAGC`, the E-score was -0.199.
The E-score of `GGGGAGAC` is reported as -0.0346.
The E-score of `AGCAGCTG` is reported as -0.203.
`GGCTATAC` has an E-score of 0.216.

Set 2 — method: RNAcompete; form: RNA; sample: in vitro; tested at: 20 nM; setting: 7-mer, probes averaged, single round; reference: mean of 7-mers; direction: higher = stronger binding
Target: PABPC1L2, full length, GST fusion (mouse, UniProt A0ABA7IW68)
Target sequence (chain): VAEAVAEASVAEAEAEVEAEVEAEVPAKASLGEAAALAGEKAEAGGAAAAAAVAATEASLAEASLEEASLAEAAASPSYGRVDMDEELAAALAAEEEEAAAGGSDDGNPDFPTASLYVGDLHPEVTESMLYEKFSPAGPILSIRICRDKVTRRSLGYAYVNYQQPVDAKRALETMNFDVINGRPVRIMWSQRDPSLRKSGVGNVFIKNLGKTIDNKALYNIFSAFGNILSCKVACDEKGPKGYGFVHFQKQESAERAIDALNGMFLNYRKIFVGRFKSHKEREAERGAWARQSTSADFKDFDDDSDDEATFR
The 7-mer Z-score of `GUGAUCA` is reported as -0.171.
`UAGUACG` gave a 7-mer Z-score of -0.162.
`AGUAAAC` has a 7-mer Z-score of 0.552.
With `GCUGCAG` the 7-mer Z-score was -0.219.
`UACGGGG` gave a 7-mer Z-score of 0.151.

Set 3 — method: universal PBM; form: double-stranded DNA, one strand shown; sample: in vitro; tested at: 600 nM; direction: higher = stronger binding
Target: Sal-like protein 4, full length isoform A (SALL4, Homo sapiens, UniProt Q9UJQ4, residues 1-1053)
Sequence of UniProt Q9UJQ4 (whole entry, looked up): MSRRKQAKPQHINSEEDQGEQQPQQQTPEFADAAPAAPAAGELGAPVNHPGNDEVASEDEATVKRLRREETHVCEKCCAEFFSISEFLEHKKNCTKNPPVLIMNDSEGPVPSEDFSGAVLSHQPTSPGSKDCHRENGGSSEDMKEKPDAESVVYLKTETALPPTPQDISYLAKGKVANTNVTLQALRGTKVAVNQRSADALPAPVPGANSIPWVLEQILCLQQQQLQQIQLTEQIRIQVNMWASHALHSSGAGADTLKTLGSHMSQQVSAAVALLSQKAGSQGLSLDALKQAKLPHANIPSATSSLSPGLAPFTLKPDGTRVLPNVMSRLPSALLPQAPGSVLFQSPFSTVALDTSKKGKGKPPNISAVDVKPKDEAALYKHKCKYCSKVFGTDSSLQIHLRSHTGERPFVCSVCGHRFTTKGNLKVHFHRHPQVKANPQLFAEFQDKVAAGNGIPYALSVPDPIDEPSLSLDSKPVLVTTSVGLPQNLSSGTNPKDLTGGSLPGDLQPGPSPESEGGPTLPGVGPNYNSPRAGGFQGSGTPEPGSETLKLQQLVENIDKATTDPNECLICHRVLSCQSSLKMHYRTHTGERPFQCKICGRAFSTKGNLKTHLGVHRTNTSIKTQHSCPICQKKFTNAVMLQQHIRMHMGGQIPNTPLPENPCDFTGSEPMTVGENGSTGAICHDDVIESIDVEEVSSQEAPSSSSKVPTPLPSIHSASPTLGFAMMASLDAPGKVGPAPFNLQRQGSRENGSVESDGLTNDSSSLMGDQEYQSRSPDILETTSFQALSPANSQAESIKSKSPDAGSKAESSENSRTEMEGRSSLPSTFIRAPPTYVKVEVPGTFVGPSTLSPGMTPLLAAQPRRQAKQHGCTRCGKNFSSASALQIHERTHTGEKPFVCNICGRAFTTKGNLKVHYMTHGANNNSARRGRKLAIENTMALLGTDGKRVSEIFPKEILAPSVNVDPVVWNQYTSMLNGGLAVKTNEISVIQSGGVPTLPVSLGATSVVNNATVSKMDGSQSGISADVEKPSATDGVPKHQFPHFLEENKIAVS
Setting: 8-mer, flanks averaged, mean of replicates
`CGGCGCCG` gave an E-score of -0.258.
The E-score of `CGTATTTA` is reported as 0.262.
For `ATGTCATG`, the E-score was 0.15.
The E-score of `AATCAGTA` is reported as 0.146.
The E-score of `CCACAGAG` is reported as -0.129.
For `CAGACCGC`, the E-score was -0.267.

Other studies, line by line
For `PhoQ, residues 284 288 289 292 302 303 ASTSDA`, the fold induction was 16.2 and 20.6 (PhoP, residues 12 14 15 18 19 LWHSL (Escherichia coli, UniProt P23836); Sort-seq, measured: YFP reporter; E. coli; PhoQ-PhoP variant library, added: 10 µM Mg2+; reference: high Mg2+ state, higher = stronger signaling).

Some of these lines once more (set 1):
`GGCTATAC` has an E-score of 0.216.
The E-score of `CTGACATA` is reported as -0.0878.
The E-score of `AGCAGCTG` is reported as -0.203.
